Experimental data from different studies.
± marks the error that the study gave.
Cell line: T47D

SMILES | assay | conditions | IC50
O=C1N=C(N2N=C(c3cccs3)CC2c2ccc(F)cc2)SC1=Cc1ccc(O)cc1 (centres unmarked) | – | – | 1.66 ± 0.1 µM
CCCCCCCCCCCCCCCCn1c(-c2cccnc2)nc(-c2ccc(C)cc2)c1-c1ccc(C)cc1 | cell growth or viability, SRB | 24 h | > 100 µM
Cc1ccc(C2=NN(C3=NC(=O)/C(=C/c4ccc(N(C)C)cc4)S3)C(c3ccc(F)cc3)C2)cc1 (centres unmarked) | cell growth or viability, MTT | – | 43.1 µM
CCCCCCCCC=CCCCCCCCCn1c(-c2cccnc2)nc(-c2ccc(C)cc2)c1-c1ccc(C)cc1 | cell growth or viability, SRB | 24 h | > 100 µM
COCC[n+]1cn(C2CCCC2)c2ccccc21 | cell growth or viability, MTT | 48 h | 33 µM
Cc1ccc(C2=NN(C3=NC(=O)/C(=C/c4ccc(Cl)cc4)S3)C(c3ccc(F)cc3)C2)cc1 (centres unmarked) | cell growth or viability, MTT | – | 7.06 µM
CCCCCCCCCCCCCCn1c(-c2cccnc2)nc(-c2ccc(C)cc2)c1-c1ccc(C)cc1 | cell growth or viability, SRB | 48 h | > 100 µM
COc1ccc(C2=NN(C3=NC(=O)/C(=C/c4ccc(N(C)C)cc4)S3)C(c3ccc(F)cc3)C2)cc1 (centres unmarked) | cell growth | – | > 100 µM
CCCCn1c(-c2cccnc2)nc(-c2ccc(C)cc2)c1-c1ccc(C)cc1 | cell growth or viability, SRB | 24 h | 83.2 µM
Cc1cc(C=O)cc(C)c1Oc1cc(Nc2ccc(C#N)cn2)nc2cnccc12 | – | 48 h | > 126 µM
CCCCCCCCn1c(-c2cccnc2)nc(-c2ccccc2)c1-c1ccccc1 | cell growth or viability, SRB | 24 h | 65.8 µM
Cc1ccc(C(C)C)cc1.Cc1ncc(CO)c(C=NNC2=Nc3ccccc3-c3[nH]c4ccc(Br)cc4c3C2)c1O.[Cl-].[Cl][Ru+] | cell growth or viability, MTT | 96 h | 5.8 µM
CCCCCC(C)n1c(-c2cccnc2)nc(-c2ccc(C)cc2)c1-c1ccc(C)cc1 (centres unmarked) | cell growth or viability, SRB | 48 h | > 100 µM
Cc1cc(C#N)cc(C)c1Oc1cc(Nc2ccc(C#N)cn2)nc2ccncc12 | – | 48 h | > 127 µM
C#CCOc1ccc(/C=N\NC(=O)c2ccncc2)cc1 | cell growth or viability, MTT | 48 h | 347 µM
O=c1oc2cc(O)cc3c2c2c(cc(O)cc12)CC3 | cell growth or viability, MTT | 48 h | 69 µM
O=C1N=C(N2N=C(c3cccs3)CC2c2ccc(F)cc2)S/C1=C\c1ccc(Cl)cc1 (centres unmarked) | cell growth or viability, MTT | – | 16.9 µM
Cc1cc(/C=C/C#N)cc(C)c1Oc1cc(Nc2ccc(C#N)cn2)nc2cnccc12 | – | 48 h | > 120 µM
Cc1ccc(C2=NN(C3=NC(=O)C(=Cc4ccc(O)cc4)S3)C(c3ccc(F)cc3)C2)cc1 (centres unmarked) | – | – | 1.15 ± 0.56 µM
CCCCn1cc(C(=O)O)c(=O)c2cc(F)c(Nc3ccc(OC)cc3OC)c(N)c21 | cell growth or viability, SRB | 72 h | > 200 µg/mL

A few entries again:
SMILES | assay | conditions | IC50
O=c1oc2cc(O)cc3c2c2c(cc(O)cc12)CC3 | cell growth or viability, MTT | 48 h | 69 µM
O=C1N=C(N2N=C(c3cccs3)CC2c2ccc(F)cc2)S/C1=C\c1ccc(Cl)cc1 (centres unmarked) | cell growth or viability, MTT | – | 16.9 µM
Cc1cc(/C=C/C#N)cc(C)c1Oc1cc(Nc2ccc(C#N)cn2)nc2cnccc12 | – | 48 h | > 120 µM
